Results of several laboratories.
Numbers after ± are the reported error.
Sequence of UniProt P25090 (whole entry, looked up): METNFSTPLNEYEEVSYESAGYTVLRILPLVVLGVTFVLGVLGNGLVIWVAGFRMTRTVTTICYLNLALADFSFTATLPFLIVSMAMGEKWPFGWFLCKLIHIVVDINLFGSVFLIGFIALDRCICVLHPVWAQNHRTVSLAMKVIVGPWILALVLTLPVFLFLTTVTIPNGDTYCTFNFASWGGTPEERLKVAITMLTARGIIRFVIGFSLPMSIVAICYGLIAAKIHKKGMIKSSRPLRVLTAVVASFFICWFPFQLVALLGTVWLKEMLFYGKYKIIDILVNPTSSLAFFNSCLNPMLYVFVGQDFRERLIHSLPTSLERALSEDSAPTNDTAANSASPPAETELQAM
Sequence of UniProt Q16774 (whole entry, unmodified, looked up): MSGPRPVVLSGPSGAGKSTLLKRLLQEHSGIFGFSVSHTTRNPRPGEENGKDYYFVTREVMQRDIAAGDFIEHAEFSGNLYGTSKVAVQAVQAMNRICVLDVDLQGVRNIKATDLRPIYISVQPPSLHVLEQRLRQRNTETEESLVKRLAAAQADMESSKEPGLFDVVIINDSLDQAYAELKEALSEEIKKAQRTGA
Sequence of UniProt Q9Y2T5 (whole entry, looked up): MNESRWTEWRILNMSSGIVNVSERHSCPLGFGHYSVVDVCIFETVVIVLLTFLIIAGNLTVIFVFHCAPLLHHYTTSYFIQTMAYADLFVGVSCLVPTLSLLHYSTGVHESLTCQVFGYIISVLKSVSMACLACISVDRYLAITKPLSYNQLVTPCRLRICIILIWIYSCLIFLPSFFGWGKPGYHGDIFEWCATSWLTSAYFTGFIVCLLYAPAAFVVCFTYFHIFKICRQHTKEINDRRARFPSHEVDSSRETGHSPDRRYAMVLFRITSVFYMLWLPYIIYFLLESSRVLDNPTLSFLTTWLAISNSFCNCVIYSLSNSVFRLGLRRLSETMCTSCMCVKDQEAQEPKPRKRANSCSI
Sequence of UniProt Q5A649 (whole entry, looked up): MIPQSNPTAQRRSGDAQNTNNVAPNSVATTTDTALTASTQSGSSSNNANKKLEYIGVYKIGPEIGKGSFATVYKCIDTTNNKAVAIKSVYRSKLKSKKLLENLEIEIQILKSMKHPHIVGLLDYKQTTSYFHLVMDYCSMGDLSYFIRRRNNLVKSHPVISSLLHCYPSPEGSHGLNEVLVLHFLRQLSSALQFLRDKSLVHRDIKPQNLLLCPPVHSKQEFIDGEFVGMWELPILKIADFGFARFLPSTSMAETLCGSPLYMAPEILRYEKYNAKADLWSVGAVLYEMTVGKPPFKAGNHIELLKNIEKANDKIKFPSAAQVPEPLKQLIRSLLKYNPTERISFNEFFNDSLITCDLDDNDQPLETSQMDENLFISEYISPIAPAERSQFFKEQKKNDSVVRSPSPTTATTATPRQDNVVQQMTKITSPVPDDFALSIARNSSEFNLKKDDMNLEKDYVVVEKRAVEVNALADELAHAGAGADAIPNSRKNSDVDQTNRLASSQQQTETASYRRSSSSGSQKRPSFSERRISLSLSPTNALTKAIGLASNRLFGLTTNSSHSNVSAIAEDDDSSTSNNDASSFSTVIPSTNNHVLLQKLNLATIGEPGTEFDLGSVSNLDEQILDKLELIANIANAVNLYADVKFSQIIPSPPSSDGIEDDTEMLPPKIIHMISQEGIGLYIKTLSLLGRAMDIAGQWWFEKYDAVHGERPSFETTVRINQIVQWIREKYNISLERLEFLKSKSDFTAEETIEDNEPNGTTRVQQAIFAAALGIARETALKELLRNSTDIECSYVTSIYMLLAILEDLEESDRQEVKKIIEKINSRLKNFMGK
Sequence of UniProt Q01105 (whole entry, looked up): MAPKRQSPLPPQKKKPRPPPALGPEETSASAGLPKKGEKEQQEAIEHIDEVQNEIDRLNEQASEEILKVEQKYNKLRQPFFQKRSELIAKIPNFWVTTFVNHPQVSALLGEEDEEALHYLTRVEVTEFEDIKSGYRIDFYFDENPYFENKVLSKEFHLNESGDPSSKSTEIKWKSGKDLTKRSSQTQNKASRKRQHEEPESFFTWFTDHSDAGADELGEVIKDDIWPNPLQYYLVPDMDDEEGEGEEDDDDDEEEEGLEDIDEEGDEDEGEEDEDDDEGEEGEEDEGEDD
Sequence of UniProt Q99814 (whole entry, unmodified, looked up): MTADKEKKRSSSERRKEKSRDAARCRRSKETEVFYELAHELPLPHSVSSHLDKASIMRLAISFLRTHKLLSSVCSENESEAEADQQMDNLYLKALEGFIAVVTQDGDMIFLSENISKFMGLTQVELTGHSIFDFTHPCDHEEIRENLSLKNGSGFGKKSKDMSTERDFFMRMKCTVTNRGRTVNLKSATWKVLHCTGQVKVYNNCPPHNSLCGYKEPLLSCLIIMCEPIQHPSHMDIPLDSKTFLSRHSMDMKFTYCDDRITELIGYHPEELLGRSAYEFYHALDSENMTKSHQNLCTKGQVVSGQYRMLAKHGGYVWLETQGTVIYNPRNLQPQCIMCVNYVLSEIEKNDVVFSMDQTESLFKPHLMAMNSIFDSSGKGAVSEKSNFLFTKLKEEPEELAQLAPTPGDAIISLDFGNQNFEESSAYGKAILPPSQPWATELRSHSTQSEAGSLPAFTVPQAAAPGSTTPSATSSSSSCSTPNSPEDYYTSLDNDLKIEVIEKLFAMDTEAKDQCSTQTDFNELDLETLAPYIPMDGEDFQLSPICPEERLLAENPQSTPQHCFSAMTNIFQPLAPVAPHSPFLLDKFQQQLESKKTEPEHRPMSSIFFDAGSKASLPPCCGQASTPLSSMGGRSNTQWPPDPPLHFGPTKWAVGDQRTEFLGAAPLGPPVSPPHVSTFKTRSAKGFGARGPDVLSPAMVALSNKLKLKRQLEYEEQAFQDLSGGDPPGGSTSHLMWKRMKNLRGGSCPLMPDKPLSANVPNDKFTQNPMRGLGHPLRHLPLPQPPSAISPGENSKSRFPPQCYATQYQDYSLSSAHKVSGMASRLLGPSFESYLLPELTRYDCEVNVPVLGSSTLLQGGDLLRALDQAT
Sequence of UniProt Q9I4X0 (whole entry, looked up): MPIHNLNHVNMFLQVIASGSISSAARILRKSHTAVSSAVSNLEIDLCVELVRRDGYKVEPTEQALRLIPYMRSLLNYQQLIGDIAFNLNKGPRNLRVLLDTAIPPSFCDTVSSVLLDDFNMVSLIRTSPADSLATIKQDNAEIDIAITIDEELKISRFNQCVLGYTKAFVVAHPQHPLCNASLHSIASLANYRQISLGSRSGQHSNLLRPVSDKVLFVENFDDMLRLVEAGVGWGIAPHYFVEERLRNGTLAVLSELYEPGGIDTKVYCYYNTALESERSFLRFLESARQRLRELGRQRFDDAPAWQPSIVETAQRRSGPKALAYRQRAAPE
Sequence of UniProt P51531 (whole entry, unmodified, looked up): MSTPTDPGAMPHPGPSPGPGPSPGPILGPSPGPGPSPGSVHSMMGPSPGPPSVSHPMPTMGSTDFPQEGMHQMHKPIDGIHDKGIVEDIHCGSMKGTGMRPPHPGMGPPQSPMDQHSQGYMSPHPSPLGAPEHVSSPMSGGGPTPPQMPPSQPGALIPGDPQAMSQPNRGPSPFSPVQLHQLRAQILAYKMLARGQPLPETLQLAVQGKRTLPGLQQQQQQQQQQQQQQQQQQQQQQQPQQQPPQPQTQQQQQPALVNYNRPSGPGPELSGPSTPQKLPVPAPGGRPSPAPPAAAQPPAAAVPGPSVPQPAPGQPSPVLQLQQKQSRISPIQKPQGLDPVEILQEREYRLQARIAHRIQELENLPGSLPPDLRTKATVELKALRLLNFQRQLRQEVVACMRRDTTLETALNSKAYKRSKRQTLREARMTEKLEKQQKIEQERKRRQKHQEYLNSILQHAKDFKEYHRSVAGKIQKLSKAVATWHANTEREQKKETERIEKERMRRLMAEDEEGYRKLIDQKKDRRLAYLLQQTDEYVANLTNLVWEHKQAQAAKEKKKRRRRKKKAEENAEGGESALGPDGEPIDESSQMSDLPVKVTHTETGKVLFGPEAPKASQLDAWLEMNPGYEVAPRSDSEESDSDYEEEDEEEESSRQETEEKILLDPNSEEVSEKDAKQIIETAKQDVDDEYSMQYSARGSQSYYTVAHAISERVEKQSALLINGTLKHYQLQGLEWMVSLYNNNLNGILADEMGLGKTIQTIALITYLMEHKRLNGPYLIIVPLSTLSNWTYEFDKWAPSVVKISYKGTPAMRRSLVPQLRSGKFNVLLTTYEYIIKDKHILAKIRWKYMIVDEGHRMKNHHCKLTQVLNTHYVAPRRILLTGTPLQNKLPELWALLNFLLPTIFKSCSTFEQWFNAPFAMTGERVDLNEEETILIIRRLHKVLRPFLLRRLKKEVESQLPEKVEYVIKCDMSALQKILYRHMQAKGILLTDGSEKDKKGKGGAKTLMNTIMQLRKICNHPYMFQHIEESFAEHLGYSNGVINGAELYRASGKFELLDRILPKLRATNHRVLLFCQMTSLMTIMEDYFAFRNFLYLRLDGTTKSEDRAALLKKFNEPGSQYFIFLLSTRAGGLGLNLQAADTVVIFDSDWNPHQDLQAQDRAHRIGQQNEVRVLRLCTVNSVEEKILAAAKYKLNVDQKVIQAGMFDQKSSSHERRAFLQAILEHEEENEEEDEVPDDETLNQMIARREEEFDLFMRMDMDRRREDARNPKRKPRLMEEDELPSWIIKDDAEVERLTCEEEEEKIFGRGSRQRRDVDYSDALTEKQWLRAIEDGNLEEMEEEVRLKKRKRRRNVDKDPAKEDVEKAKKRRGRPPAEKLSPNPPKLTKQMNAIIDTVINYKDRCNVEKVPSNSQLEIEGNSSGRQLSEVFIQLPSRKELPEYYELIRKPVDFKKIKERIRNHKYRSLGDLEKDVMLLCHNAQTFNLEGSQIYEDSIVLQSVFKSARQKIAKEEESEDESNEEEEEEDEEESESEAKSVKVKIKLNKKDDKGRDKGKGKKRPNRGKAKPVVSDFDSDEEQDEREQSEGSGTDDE

| SMILES | target | assay | system | conditions | how to read | quantity | value |
| --- | --- | --- | --- | --- | --- | --- | --- |
| CCCCCCCCCCCCC/C=C/[C@@H](O)[C@H](CO)NC(=O)CCCCCCCCCCCCCCCCCCCCCCCCC | Protein SET (SET, Homo sapiens, UniProt Q01105) | lipid binding, GFP pull-down LC-MS/MS | A549 overexpressing GFP-tagged protein | ER-targeted construct | baseline: eluate plus flow-through | lipid fraction bound | 5% |
| N[C@H]1CCN(c2nccc(-c3cnn4ncccc34)n2)C1 | ABL1 (Homo sapiens, UniProt P00519, Q252H) | KINOMEscan | – | 1 µM | baseline: control | remaining binding | 74% |
| CC/C=C\C[C@H](O)/C=C/C=C\C/C=C\C=C\[C@@H](O)C/C=C\CCC(=O)O | FPR2 (Homo sapiens, UniProt P25090) | calcium mobilisation | HEK293 expressing FPR2 | concentration not given | – | intracellular calcium | no effect |
| CC1CCCN(C(=O)c2cc3ncccn3n2)C1 (stereo not shown) | Huntingtin (HTT, Homo sapiens, UniProt P42858) | binding, affinity selection mass spectrometry | – | – | baseline: other proteins in batch | log fold enrichment | 0.0166 |
| CCN1CCC[C@H]1CNC(=O)c1c(O)c(Cl)cc(Cl)c1OC | GPR52 (Homo sapiens, UniProt Q9Y2T5) | β-arrestin recruitment, TANGO luminescence | – | concentration not given | baseline: basal luminescence | log2 fold change | -0.113 |
| COc1ccc(F)cc1C(=O)NCc1ccc(-c2nn([C@@H](C)C(F)(F)F)c(N)c2C(N)=O)cc1 | JAK3 (Homo sapiens, UniProt P52333) | kinase activity, inhibitor, HotSpot radiometric | – | 100 nM, together with: ATP 10 µM | – | remaining activity | 97.4 ± 0.3% |
| Cc1cc2ccccc2c2ccc3ccccc3c12 | Aryl hydrocarbon receptor (Danio rerio, UniProt Q9YGV3) | reporter gene, agonist, luciferase reporter | ZF-4 | 3333.33 µM | baseline: vehicle control | fold change | 4.32 |
| COc1cccc(C(=O)C#Cc2ccc(O)c(OC)c2)c1 | mvfR (Pseudomonas aeruginosa, UniProt Q9I4X0) | receptor binding | – | concentration not given, 1.5 h, together with: PQS at 1:1 ratio | baseline: control | binding | 84% |
| CN(C)C(=O)c1cccc(C(=O)c2c[nH]c3ccccc23)n1 | AHR (Homo sapiens, UniProt P35869) | reporter gene, agonist, XRE luciferase | HepG2 | – | baseline: ITE | Emax | 37 ± 1% |
| Nc1nc2c(ncn2[C@@H]2O[C@H](COP(=O)(O)O)[C@@H](O)[C@H]2O)c(=O)[nH]1 | GUK1 (Homo sapiens, UniProt Q16774, S13A) | binding, ITC | – | – | – | -TΔS | 0.532 kcal/mol |
| COc1cc(-c2cc(C(C)=O)n3ccccc23)cc(OC)c1Cn1ccnc1 | SWI/SNF-related matrix-associated actin-dependent regulator of chromatin subfamily A member 2, isoform B (SMARCA2, Homo sapiens, UniProt P51531) | – | – | – | – | ΔTm | 0.3 °C |
| CC(=C/C(=O)O)/C=C/C=C(\C)C1C=C2C(C)(C)CCCC2(C)O1 (stereo not shown) | Rhodopsin (RHO, Homo sapiens, UniProt P08100, E181K) | immunostaining, measured: opsin | COS-7 transfected | 5.00 µM, unit not given | baseline: surface over total stained cells | plasma membrane localization | 0.72 |
| CC(=O)c1ccc(C)cc1 | Or8a1 (Mus musculus, UniProt Q60893) | odorant-evoked current, agonist | isolated olfactory neurons | – | baseline: acetophenone saturated response | Emax | 100 ± 1% |
| O=[N+]([O-])c1cc(C(F)(F)F)ccc1NCc1ccsc1 | Endothelial PAS domain-containing protein 1, PAS-B domain (EPAS1, Homo sapiens, UniProt Q99814) | binding, ITC, reverse mode | – | – | – | TΔS | 1.44 ± 0.15 kcal/mol |
| Oc1ccccc1-c1n[nH]cc1-c1ccnc2ccccc12 | Serine/threonine-protein kinase ATG1 (ATG1, Candida albicans, UniProt Q5A649) | kinase binding, MIB/MS competition | Candida albicans lysate | 10 µM | baseline: DMSO, negative = stronger binding | log2 fold change | 0.15 |
| CC[C@@H]1[C@H](F)C(=O)N[C@@H]1COc1nccc2cc(C(N)=O)c(OC)cc12 | CDK7 (Homo sapiens, UniProt P50613) | ATP-site probe binding, ActivX profiling | THP-1 cell lysate | 0.04 mM, Lys2 site | – | inhibition | -3.7% |

Repeated from above:
| SMILES | target | assay | system | conditions | how to read | quantity | value |
| --- | --- | --- | --- | --- | --- | --- | --- |
| Cc1cc2ccccc2c2ccc3ccccc3c12 | Aryl hydrocarbon receptor (Danio rerio, UniProt Q9YGV3) | reporter gene, agonist, luciferase reporter | ZF-4 | 3333.33 µM | baseline: vehicle control | fold change | 4.32 |
| COc1cccc(C(=O)C#Cc2ccc(O)c(OC)c2)c1 | mvfR (Pseudomonas aeruginosa, UniProt Q9I4X0) | receptor binding | – | concentration not given, 1.5 h, together with: PQS at 1:1 ratio | baseline: control | binding | 84% |
